Measurements gathered from unrelated publications.
A part holds a random share of what one study measured. Substitutions count along the parent as printed.
Sequence of UniProt P23975 (whole entry, looked up): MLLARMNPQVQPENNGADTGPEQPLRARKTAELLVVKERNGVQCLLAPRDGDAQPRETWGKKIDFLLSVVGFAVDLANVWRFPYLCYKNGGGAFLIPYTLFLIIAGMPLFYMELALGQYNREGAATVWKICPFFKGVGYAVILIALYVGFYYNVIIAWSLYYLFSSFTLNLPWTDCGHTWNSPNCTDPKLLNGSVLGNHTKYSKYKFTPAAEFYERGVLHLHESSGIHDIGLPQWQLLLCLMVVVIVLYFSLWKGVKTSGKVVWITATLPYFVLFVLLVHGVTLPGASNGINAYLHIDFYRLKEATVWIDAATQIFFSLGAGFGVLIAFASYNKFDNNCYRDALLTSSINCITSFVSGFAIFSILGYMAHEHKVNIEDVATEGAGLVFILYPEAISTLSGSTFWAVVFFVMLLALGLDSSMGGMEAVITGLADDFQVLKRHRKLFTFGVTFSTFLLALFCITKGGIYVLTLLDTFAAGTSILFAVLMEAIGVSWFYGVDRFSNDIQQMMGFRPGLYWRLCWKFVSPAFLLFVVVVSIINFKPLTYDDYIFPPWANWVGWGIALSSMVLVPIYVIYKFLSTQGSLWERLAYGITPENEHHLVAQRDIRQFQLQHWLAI

Block 1
Target: CCNB2, cyclin fold, Cln2 fusion (human)
Method: yeast growth competition, sequencing
Sample: yeast
Setting: strong parent motif
Reference: not given
Reading: higher = stronger binding
Starting sequence: viral docking peptide; YKVKRRLVFGADD; partner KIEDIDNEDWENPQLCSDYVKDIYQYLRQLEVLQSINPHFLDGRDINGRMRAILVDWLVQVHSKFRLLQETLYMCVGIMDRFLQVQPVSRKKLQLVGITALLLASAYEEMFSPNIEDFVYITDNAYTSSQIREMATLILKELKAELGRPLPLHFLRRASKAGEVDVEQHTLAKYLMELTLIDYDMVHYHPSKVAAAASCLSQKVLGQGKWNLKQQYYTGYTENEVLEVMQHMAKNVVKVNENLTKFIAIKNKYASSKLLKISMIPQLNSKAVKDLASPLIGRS
Variant | normalised enrichment score
YKVKRRLTFGADD [V8T] | 2.15
YKVKRRLVFRADD [G10R] | 1.67
YKVKSRLVFGADD [R5S] | 0.375
YKRKRRLVFGADD [V3R] | 0.703
YKVKRRLVFGATD [D12T] | 1.2
YKTKRRLVFGADD [V3T] | 0.944
YRVKRRLVFGADD [K2R] | 2.03
YKVKRRLVFGWDD [A11W] | 1.72

Block 2
Target: vanadate, free oxyanion
Method: microfluidic competitive inhibition
Sample: in vitro, cell-free expressed
Tested at: not given
Setting: derived from inhibition constants, unchanged parent 676 nM
Reading: lower = stronger binding
Starting sequence: PafA, mature enzyme, eGFP fusion (Elizabethkingia meningoseptica, UniProt Q9KJX5); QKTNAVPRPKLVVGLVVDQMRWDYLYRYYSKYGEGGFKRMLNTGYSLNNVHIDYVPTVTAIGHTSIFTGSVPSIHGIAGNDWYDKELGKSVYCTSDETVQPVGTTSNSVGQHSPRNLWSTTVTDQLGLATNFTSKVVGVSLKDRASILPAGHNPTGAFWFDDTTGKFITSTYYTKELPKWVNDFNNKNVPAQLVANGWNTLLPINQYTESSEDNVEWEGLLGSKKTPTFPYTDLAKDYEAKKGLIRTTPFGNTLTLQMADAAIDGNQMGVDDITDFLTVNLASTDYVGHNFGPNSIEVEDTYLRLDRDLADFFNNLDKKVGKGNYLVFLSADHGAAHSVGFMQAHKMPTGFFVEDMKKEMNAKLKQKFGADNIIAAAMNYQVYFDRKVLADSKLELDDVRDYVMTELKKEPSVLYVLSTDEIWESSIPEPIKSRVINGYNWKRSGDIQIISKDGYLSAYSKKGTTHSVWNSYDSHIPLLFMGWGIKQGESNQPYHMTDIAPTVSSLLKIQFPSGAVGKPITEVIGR
Variant | oxyanion analog dissociation constant
I436V | 828 nM
G292V | 3.37 µM
D272G | 751 nM
L221G | 816 nM
V435A | 837 nM
T174G | 787 nM
Y459V | 714 nM
V503G | 2.73 µM

Block 3
Target: UDP-N-acetylglucosamine--peptide N-acetylglucosaminyltransferase 110 kDa subunit (OGT, Homo sapiens, UniProt O15294)
Effect on: binding
Method: phage display NGS
Form: peptide
Reference: input library
Construct (O15294 1-1046): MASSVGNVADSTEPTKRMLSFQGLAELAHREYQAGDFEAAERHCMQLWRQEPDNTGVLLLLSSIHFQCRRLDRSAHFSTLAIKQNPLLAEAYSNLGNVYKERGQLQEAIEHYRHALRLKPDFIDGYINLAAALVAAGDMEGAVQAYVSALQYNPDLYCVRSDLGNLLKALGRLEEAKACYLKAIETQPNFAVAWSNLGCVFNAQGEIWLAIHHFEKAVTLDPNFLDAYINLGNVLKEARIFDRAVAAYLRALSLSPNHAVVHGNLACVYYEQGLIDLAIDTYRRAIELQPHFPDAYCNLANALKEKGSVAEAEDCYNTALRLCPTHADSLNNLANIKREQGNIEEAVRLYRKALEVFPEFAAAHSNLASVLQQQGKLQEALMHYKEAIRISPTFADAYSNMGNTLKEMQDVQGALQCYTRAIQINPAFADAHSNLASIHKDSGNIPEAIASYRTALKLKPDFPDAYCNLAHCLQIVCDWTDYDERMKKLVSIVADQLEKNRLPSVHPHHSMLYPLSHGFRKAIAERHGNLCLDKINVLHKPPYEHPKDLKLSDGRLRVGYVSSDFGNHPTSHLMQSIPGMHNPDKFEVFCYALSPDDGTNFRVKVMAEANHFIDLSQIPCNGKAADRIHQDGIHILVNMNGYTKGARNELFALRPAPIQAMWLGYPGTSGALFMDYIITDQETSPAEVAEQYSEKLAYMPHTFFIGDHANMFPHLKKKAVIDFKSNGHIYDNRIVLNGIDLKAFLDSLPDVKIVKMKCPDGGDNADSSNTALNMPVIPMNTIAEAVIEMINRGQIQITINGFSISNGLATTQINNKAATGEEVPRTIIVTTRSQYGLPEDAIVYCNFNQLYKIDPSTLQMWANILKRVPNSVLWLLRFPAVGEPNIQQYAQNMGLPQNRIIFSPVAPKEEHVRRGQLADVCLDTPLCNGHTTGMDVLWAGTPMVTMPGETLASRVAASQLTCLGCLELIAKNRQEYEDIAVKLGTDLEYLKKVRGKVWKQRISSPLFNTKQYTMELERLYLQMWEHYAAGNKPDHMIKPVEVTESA
Molecule | minimum log2 enrichment ratio
HLTHRHSYIKADHSL | 3.01
HRMDHHDHQPHYDAS | 2.64
RSFATTSYPPVYQIF | 2.06
QYTPKYQIKTPFIIS | 3.45
HPKFLPSMHHYPQGD | 2.14
NIMPAYQIMYPANFR | 4.65
HWQDHHFVSDNTYFR | 1.98
HVDTWHMSHHNYTH | 2.79

Mixed results
SMILES | target | effect on | method | tested at | measurement | result
CNC(=O)c1cc(C(=O)N[C@H]2[C@@H]3COC[C@@H]32)cc2c1O[C@H](CF)[C@H]2c1ccccc1 | Sodium-dependent noradrenaline transporter (SLC6A2, Homo sapiens, UniProt P23975) | binding | radioligand binding | 10 µM | inhibition | 0.32%
